# Measured values collected from several papers.
# Every numbered part comes from another study and shows a few of its results, in no order.

# Block 1 — method: RNA Bind-n-Seq; molecule type: RNA; sample: in vitro; concentration: 365 nM; reference: no-protein control; direction: higher = stronger binding
# Target: RNA binding protein fox-1 homolog 2, RRM domain, GST-SBP tag (RBFOX2, Homo sapiens, UniProt O43251-10, residues 100-194)
# Setting: natural RNA segment, single round, ends assumed
# Shared flanks, not repeated: GGGAGUUCUACAGUCCGACGAUC … UGGAAUUCUCGGGUGCCAA
# Target sequence (chain): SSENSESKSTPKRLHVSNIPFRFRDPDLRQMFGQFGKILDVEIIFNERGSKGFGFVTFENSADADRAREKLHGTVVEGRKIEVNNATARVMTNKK
Oligonucleotide,RBNS enrichment (R)
CUUGCUCCCGAGUUGGGGGGAGGGGGUGUGGCAACGUGCCCCCCGCAGAGGCCACGCAUGUUUGACCAAAGCCCUCAUUGUGGUCCGAGGACAGCCUUUUCCCCAGGCCU,6.69
UCUGUUAUGUUCCUAUGGAAACACUGUACUGUACAUACUAUGCUUAAAACAUUUAAAACACAAUGUUUUAAAUGUGGACAGAACUGUGUAAACCACAUAAUUUCUGUACA,0.354
GGCCGAGCCUCUGUGUUGCCUUCUCCUCUGUCCUCAGACUCAGGAGGCAGGUGGCAAUCUCCUCGCCAGCAUUCCAGGCCCUCAGUUCAAUGACAUCUCUCAGAGCAUUU,0.554
GGGUGGGAUGUGCGUUCUCCGCUCGUGGUGAUGUCAGGAGCUCCUCGGAGGGAACAGAGCGGCUGUGUAUGCAGCCUGCAGGUUUCCAUACACUGAAGCUUUUACCUCAA,0.404
CCCUCCGUGAUUGAGGGCUCAUAUAGCCGCUGAGGGCAGCCUGCAGCCAGGUGGCCUCACCUGCUGCCCAGAAUUAGGCUGUGCCUUUUCCCAGUCCUUCCCCAUGCCAG,0.754
ACAUCCUUGACUUUCAUUCCCCCAACCUCCAGCAGGUUGGCCCCAAUCCUCUUCACCUCUGUGUUUUCUUCUAGAAGAUGCAUUUUGGGUCUGAGAGGAGCAUUUUCCUG,0.257
GCAGGAGUCACAGUUGAGAGCUGGGCUUCCUGCCUCUUACAUACAAUAAAGAGAUUGCUAACACUGGGUAGCUGACCUUUAAUAGAACUACAGCCCUCCCCGUGCCUCUG,0.312
GGCCAAUAAGGUAUCUUGACUUUAUCAAAGUAGAAGAGAGGGUCACUUCGGAGUCAAAUCAUACACUAGGCCUUUGAUGCUUUAAUUCUUCUUCAGUUCAUUAAAAGUAA,0.763
UCUCAUUUUUUAUACUAAGCAAUAACUUUCCAAAGCAAGAAGUUCAGGAUGGAGAGAGUCCCCUCCUGUGUAGGCAUGGGGUGGAUGCGGUGCCCACCUGGGCUAUGUGG,1.2
GUAAAUAAAUGUAUAUGUGUUUCUAUAAUUCUGGAGAGAUAUGGAAUCCUCCCCUUUCUGGCACAAGACAGAAAGCAAGCAGCUGAGUAACUGGAGACCAGUGGAAAUGA,0.78
AAGUCAGUUAAACCAUUUAGUUCAUCAGGAAUAUUUAAAAUAUUCUGCAUGAAUCCGUGUGGCUGUCGUCUUUGUUUACCAUGGCUGCUGCUGUGGGACUGUUUUUUCCU,0.251
GGGAGGGAUGGGACUCACUCAGCCCUGUGAAUGUGUUCUAUGGCUGAGCAACAUCCCUAGCCUUCAGAAUAGAAUUUUUGAUGUUGGAAAUCCUGUAUUUAAAGGAAACC,0.875

# Block 2 — method: protein-binding microarray; molecule type: double-stranded DNA, one strand shown; sample: in vitro; concentration: not given; direction: higher = stronger binding
# Target: Myc proto-oncogene protein, bHLH-zipper, MAX partner unstated (MYC, Homo sapiens, UniProt P01106, residues 368-449)
# Sequence of UniProt P01106 (368-449, looked up): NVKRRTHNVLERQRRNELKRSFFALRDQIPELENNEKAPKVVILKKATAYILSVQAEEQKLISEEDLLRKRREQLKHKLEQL
# Setting: k-mer, scored over probes, only values ≥0.25
Oligonucleotide,E-score
GGTGGCCA,0.302
ATGGCCAC,0.349
CATGGGTA,0.312
GCGTGGCA,0.442
CGCATGGA,0.43
CCGCGCGG,0.358
CACGAGAC,0.412
CCCGGCAC,0.251
GCGAGGCC,0.285
CTCGACAC,0.272
AGCGTGAT,0.302
ACATGTAG,0.31
CACACGTG,0.495
CACGCCGA,0.369
AAGACATG,0.262
CATGCATA,0.289
ACCACGGG,0.327
CACGTTGG,0.362

# Block 3 — method: protein binding microarray; molecule type: double-stranded DNA, one strand shown; sample: in vitro; concentration: not given; reference: not given; direction: higher = stronger binding
# Target: Histone acetyltransferase KAT6A, both winged helices, GST fusion (KAT6A, Homo sapiens, UniProt Q92794, residues 1-181)
# Setting: 8-mer, flanks averaged, mean of 2 arrays, mostly near background
# Target sequence (chain): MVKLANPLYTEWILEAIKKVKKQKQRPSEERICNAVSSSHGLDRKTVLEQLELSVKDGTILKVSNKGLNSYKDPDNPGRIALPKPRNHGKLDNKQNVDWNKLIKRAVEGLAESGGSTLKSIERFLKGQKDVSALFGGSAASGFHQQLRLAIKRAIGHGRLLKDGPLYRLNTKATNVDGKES
Oligonucleotide,E-score
TAAGACCA,-0.151
CACGAGTG,-0.111
ATCGCATA,0.132
CAAGCAGC,-0.204
ACGAGAAA,-0.0451
ATATGTGA,-0.13
AAATATTA,-0.0121
GCTGGGTA,-0.099
GAAAAGAA,-0.0227
ACTGGTGC,0.0588
GGCCAAAC,0.078
GCTCGAAA,-0.0557
GATTTAGA,-0.0982
CAGGAGGA,-0.108
AAAGCGTC,0.0714
GTTAAAGA,0.0553
CACCTTAC,-0.0631
ATCCAACC,-0.113
AGAGGCCT,-0.144
AAGTAAAC,-0.145
CCCAAAAA,-0.0963
AACATCTG,-0.0488
CGTATCGC,0.268
GTACCTAC,-0.118
AGTACGTC,-0.0671

# Other studies, line by line — molecule type: peptide; direction: direction not given
Molecule,target or system,assay,system,setting,enrichment score
TQERKQIHCLSEDELS,human cyclin A2,competitive growth deep sequencing,"Saccharomyces cerevisiae, cyclin A2-Cln2 fusion strain",peptide tiling library,0.428
HRRRLLFACSPPPASQ,Saccharomyces cerevisiae,"binding, competitive growth deep sequencing",cyclin E1-Cln2 fusion strain,peptide tiling library,-0.651
GSALKKLFTSTGL,Saccharomyces cerevisiae,"peptide binding, yeast competitive growth sequencing",cyclin F-Cln2 fusion,library 1,-0.342
RRRIKLPESDSSED,human cyclin A2,competitive growth deep sequencing,"Saccharomyces cerevisiae, cyclin A2-Cln2 fusion strain",peptide tiling library,1.67

# A few entries again (block 1):
Oligonucleotide,RBNS enrichment (R)
CCCUCCGUGAUUGAGGGCUCAUAUAGCCGCUGAGGGCAGCCUGCAGCCAGGUGGCCUCACCUGCUGCCCAGAAUUAGGCUGUGCCUUUUCCCAGUCCUUCCCCAUGCCAG,0.754
GCAGGAGUCACAGUUGAGAGCUGGGCUUCCUGCCUCUUACAUACAAUAAAGAGAUUGCUAACACUGGGUAGCUGACCUUUAAUAGAACUACAGCCCUCCCCGUGCCUCUG,0.312
GGGAGGGAUGGGACUCACUCAGCCCUGUGAAUGUGUUCUAUGGCUGAGCAACAUCCCUAGCCUUCAGAAUAGAAUUUUUGAUGUUGGAAAUCCUGUAUUUAAAGGAAACC,0.875
